Assay results pooled from the literature.
Parts stem from different laboratories: compare values within a part only.

Series 1
Target: Ras GTPase-activating protein-binding protein 1, C-terminal RGG region (G3BP1, Homo sapiens, UniProt Q13283)
Sequence of UniProt Q13283 (whole entry, looked up): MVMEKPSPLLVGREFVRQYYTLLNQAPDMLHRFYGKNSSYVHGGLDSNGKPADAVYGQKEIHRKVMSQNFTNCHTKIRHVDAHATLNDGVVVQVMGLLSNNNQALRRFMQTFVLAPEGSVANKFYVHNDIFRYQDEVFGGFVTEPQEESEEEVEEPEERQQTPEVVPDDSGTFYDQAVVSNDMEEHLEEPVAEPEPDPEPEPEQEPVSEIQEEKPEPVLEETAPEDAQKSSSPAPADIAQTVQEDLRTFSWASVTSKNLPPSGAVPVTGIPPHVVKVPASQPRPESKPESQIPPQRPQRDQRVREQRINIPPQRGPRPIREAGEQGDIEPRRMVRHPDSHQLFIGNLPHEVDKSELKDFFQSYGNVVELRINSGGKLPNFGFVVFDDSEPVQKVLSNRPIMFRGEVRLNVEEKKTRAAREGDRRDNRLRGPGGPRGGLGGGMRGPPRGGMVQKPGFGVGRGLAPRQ
Method: RNA Bind-n-Seq
Molecule type: RNA
Sample: in vitro
Concentration: 1 µM
Notes: whole 134-nt RNA, ends assumed
Added: 150 mM KCl
Baseline: input library
Reading: higher = stronger binding
Sequence	log2 enrichment
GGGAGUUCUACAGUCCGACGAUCUGUGCUACACAUCGUAUGUACCGAAUCGGGGAAAAAGGGGUUUUUUUGGGGAAAAAAAGGGGAAAGUAUUAUGUUACGCCGUUCGGAUCUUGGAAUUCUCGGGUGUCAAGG	0.312
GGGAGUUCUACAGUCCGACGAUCAAGUCCUGUGCUACACAUCGUAUGUACCGAAUCGGUUUUUGGAAAAAGGAAAAAGGAAAGUAUUAUGUUACGCCGUUCGGAUCUGCACUUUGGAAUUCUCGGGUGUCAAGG	-2.08
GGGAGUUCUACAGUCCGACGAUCCCUCAAGUCCUGUGCUACACAUCGUAUGUACCGAAUCGGUGGAGGAAAAAGGAAAGUAUUAUGUUACGCCGUUCGGAUCUGCACUUCCAGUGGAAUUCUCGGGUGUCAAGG	-0.702
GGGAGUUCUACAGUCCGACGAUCGCAGGAAGUAAAAACAAAUGGAAAUGCUUCGGAUAGUGGCACGGGUGGGGGUUGCUAAGGAAAGGGUGGGAUGGGAGUGGGUAAAGAGUUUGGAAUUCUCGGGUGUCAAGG	1.08
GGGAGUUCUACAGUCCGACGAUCCUCAAGUCCUGUGCUACACAUCGUAUGUACCGAAUCGGGUGGGUGGGUUUGGGAAAGUAUUAUGUUACGCCGUUCGGAUCUGCACUUCCAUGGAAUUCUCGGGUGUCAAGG	1.7
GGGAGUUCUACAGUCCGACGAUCCAAGUCCUGUGCUACACAUCGUAUGUACCGAAUCGGGGUUUGGUUUGGGGUUUGGAAAGUAUUAUGUUACGCCGUUCGGAUCUGCACUUCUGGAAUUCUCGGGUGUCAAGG	-1.03
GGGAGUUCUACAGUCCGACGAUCGCAGGAAGUAAAAACAAAUGGAAAUGCUUCGGAUAGUGGCAGAGGUGGGGGUUGCUAAGGAAAGGGUGGGAUGGGAGUGGGUAAAGAGUUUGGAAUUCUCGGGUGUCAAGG	0.921
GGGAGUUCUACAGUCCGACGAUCUGUGCUACACAUCGUAUGUACCGAAUCGGGGAAAAAAAGGGGUUUUUGGGGUUUUUUUGGGGAAAGUAUUAUGUUACGCCGUUCGGAUCUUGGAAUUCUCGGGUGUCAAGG	0.48
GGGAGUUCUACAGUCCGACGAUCACCAUGCAAAAGGGCAUCUUUGGGAAGUGGGGCAAGGGGGGGAUAGGGAGGGGGGUAACACUUUGGGAACAGGUGGUCCCAGGUCGUUUCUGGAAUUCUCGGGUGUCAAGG	-1.11
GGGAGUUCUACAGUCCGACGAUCAAGUCCUGUGCUACACAUCGUAUGUACCGAAUCGGAAAAAAAGGAAAGGAAAAAGGAAAGUAUUAUGUUACGCCGUUCGGAUCUGCACUUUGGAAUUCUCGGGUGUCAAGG	-2.06
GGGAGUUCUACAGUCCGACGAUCUCCUCAAGUCCUGUGCUACACAUCGUAUGUACCGAAUCGGGAGGGGAGGAGGAAAGUAUUAUGUUACGCCGUUCGGAUCUGCACUUCCAGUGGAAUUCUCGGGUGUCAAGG	-0.645
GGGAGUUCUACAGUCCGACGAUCUUGCUAAUCUAUAAAUUUUUUUUAUAUGAAAUAGCUCAUAGUCGGAAGCCGGCACCCUCAAAUGAGCCCGAAUAUCUAUGUAAAUGGAUGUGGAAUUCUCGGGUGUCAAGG	-3.32
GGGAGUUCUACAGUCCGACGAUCUGGGAGGUGGAUUUUGUUUACUUUUUUAGCUCAUUUCCAGGGGUGGGAAUUUUUUUUUAAUAUGUGUCAUGAAUAAAGUUGUUUUUGAAAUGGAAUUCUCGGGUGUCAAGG	1.92
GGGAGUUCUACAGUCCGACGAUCUGGGAGGUGGAUUUUGUUUAUUUUUUUAGCUCAUUUCCAGGGGUGGAAAUUUUUUUUUAAUAUGUGUCAUGAAUAAAGUUGUUUUUGAAAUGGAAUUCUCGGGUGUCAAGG	3.06

Series 2
Target: TAR DNA-binding protein 43, full length, His tag (TARDBP, Homo sapiens, UniProt Q13148, residues 1-414)
Method: RNA Bind-n-Seq
Molecule type: RNA
Sample: in vitro
Concentration: 20 nM
Notes: 6-mer, flanks averaged, single round
Added: 150 mM LiCl
Baseline: input library
Reading: higher = stronger binding
Sequence	6-mer enrichment (R)
AAAACA	0.844
GGGUAA	1.05
UGGUGC	1.18
UGAAGU	1.02
AUUAGG	0.981
CUUCUG	0.872
GAAGAA	0.975
UUAAAU	1
GUUAAU	1.03
UCAGCG	0.895
CCACGG	0.91
GUAUCC	0.896
GUUUUC	1.12
CAGGUA	0.931

Series 3
Target: Histone acetyltransferase KAT6A, winged helix 1, GST fusion (KAT6A, Homo sapiens, UniProt Q92794, residues 1-85)
Method: protein binding microarray
Molecule type: double-stranded DNA, one strand shown
Sample: in vitro
Concentration: not given
Notes: 8-mer, flanks averaged, mean of 2 arrays, mostly near background
Baseline: not given
Reading: higher = stronger binding
Residues (chain): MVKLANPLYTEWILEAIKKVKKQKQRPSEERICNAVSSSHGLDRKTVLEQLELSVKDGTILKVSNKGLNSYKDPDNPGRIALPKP
Sequence	E-score
CAGATGCC	-0.101
ACAAAAAA	-0.135
AGTACTAA	-0.154
CGATGCGA	0.0622
CGTTCAGA	0.0386
AATCTCGA	-0.121
GCGTATCA	0.107
AAGCGCTG	0.226
AACCCCCC	-0.213
CAGCCAAG	-0.144
ATCAGGAT	-0.176

Mixed results
Molecule	target	assay	test system	setting	scale	measurement	value
PhoQ, residues 284 288 289 292 302 303 SSCCRF	PhoP, residues 12 14 15 18 19 IQFRS (Escherichia coli, UniProt P23836)	Sort-seq, refers to: YFP reporter	E. coli	PhoQ-PhoP variant library, added: 10 µM Mg2+	baseline: high Mg2+ state, higher = stronger signaling	fold induction	7.61

Repeated from above (series 2):
Sequence	6-mer enrichment (R)
UCAGCG	0.895
CCACGG	0.91
